# Measured values collected from several papers.
# Several values in a cell are separate wells, animals, samples, runs or records.
Structure (SMILES),test system,setting,quantity,result
O=C(O)CCC(=O)O.[2H]C([2H])([2H])Oc1cc(C)c2[nH]ccc2c1CN1CC[C@@H](C2CC2)C[C@H]1c1ccc(C(=O)O)cc1,"human, plasma","125 mg twice daily, day 10, multiple ascending dose, geometric mean",AUC(0-tau),44200 ng·h/mL
COc1cc(C(=O)NC2CCN(C)CC2)c(F)cc1Nc1ncc(C(F)(F)F)c(Oc2cccc3c2C(=O)N(C)C3)n1,"human, Japanese, plasma","oral, 200 mg single dose, geometric mean",AUC(0-tau) cycle 1,16.7 µM·h
CC(C)NC(=O)COc1cccc(-c2nc(Nc3ccc4[nH]ncc4c3)c3ccccc3n2)c1,"human male, plasma","oral, 200 mg, day 6, fed, alone, geometric mean",AUC(0-tau),9710 ng·h/mL
CCN1CCN(Cc2ccc(Nc3ncc(F)c(-c4cc(F)c5nc6n(c5c4)[C@H](C)CCC6)n3)nc2)CC1,"human, plasma","400 mg multiple dosing, mean",AUC(0-tau),7690 ng·h/mL
Cc1ncnc2c1ccn2[C@@H]1C[C@H](Oc2cc(C(F)F)c(F)c3c2CNCC3)[C@@H](O)[C@H]1O,human,"oral, 2 mg twice daily",AUC(0-tau),305 ng·h/mL and 148 ng·h/mL
Cc1noc(C)c1-c1cc(C(O)(c2ccccn2)c2ccccn2)c2nc(C3CC3)[nH]c2c1,"human patients, plasma","oral, 1.4 mg, cycle 1 day 8, monotherapy",AUC(0-tau),1840 ng·h/mL
CCCCOCCOc1ccc(-c2ccc3c(c2)/C=C(/C(=O)Nc2ccc([S@@+]([O-])Cc4cncn4CCC)cc2)CCCN3CC(C)C)cc1,"human, mild hepatic impairment, plasma","oral, 150 mg, day 1, geometric mean",AUC(0-tau),4560 ng·h/mL
CCOc1c([C@H](C)n2nc(C)c3c(N)ncnc32)cc(Cl)c(F)c1[C@@H]1CNC(=O)C1,"human, DLBCL, plasma","oral, 30 mg, day 15, geometric mean",AUC(0-tau),27.8 µM·h
